Measurements pooled from the literature.
Numbered parts are unrelated; each lists some results of a single study. “And” joins repeats or separate records; there may be more than shown.
Chain of UniProt Q08345 (whole entry, looked up): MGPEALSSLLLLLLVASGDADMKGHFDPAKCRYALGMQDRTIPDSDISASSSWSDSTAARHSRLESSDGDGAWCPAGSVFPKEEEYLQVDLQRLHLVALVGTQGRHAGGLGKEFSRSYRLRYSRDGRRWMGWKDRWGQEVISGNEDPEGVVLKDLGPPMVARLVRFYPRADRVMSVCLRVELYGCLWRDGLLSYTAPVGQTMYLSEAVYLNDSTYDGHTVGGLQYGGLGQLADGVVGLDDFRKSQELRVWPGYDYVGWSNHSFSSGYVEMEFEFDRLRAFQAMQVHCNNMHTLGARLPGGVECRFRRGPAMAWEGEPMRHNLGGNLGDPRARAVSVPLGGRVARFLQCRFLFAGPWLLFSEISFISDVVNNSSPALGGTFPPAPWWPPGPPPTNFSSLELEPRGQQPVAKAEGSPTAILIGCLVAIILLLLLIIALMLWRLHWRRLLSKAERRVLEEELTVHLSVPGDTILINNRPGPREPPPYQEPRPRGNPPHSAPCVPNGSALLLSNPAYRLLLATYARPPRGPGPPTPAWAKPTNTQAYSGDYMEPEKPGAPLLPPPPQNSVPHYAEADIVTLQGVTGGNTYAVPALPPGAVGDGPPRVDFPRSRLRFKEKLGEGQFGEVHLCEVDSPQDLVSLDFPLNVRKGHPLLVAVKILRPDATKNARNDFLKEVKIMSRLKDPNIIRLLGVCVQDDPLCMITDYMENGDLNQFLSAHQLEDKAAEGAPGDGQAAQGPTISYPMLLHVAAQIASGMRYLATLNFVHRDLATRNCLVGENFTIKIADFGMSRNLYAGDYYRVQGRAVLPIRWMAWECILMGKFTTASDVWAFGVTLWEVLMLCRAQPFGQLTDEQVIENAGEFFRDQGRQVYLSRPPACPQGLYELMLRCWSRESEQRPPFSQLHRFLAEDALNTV
Chain of UniProt O00506 (whole entry, looked up): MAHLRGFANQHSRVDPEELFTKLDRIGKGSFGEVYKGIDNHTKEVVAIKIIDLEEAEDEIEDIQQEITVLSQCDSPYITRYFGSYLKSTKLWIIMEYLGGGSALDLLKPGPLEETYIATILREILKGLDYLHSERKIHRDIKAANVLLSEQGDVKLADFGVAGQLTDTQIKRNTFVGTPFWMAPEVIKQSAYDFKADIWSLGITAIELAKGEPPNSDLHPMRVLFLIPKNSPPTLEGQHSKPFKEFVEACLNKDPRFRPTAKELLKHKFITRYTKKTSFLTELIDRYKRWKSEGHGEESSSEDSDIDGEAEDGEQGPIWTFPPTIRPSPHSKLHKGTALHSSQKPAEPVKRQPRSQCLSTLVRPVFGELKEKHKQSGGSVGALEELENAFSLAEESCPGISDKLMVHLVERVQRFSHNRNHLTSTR
Chain of UniProt O15530 (whole entry, looked up): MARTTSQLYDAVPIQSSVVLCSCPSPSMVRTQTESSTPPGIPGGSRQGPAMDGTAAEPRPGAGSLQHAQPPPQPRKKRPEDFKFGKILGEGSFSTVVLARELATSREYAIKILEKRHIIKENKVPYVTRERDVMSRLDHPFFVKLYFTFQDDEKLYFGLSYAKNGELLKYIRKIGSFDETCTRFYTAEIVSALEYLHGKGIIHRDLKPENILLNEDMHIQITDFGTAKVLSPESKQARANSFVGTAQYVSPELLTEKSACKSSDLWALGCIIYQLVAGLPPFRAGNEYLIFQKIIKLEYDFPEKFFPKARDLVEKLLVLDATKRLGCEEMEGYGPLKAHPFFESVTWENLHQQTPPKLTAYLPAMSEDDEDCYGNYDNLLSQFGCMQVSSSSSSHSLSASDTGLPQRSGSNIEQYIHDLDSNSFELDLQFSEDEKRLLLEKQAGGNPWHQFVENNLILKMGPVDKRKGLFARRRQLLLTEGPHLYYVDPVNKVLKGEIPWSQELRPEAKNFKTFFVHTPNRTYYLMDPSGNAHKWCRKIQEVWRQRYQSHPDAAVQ
Chain of UniProt Q15418 (whole entry, looked up): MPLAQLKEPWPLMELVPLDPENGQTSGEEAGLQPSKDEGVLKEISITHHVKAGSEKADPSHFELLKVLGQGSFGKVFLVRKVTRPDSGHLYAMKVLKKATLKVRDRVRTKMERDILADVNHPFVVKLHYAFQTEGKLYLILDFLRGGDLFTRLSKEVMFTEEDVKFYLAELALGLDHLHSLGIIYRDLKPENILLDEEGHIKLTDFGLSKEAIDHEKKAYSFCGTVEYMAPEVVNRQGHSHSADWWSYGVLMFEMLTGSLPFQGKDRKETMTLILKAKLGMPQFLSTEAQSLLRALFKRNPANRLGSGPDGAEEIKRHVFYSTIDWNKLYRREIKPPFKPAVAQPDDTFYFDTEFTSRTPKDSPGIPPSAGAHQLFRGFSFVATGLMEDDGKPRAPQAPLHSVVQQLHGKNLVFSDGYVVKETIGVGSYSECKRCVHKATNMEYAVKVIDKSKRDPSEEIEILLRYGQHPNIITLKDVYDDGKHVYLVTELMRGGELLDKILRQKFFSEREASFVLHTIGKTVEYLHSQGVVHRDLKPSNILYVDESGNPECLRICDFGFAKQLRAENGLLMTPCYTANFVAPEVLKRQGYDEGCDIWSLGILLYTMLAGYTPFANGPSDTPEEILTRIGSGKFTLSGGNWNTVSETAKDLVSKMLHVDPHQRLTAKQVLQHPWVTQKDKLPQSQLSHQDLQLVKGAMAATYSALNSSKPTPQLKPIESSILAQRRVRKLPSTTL
Chain of UniProt Q9BVS4 (whole entry, looked up): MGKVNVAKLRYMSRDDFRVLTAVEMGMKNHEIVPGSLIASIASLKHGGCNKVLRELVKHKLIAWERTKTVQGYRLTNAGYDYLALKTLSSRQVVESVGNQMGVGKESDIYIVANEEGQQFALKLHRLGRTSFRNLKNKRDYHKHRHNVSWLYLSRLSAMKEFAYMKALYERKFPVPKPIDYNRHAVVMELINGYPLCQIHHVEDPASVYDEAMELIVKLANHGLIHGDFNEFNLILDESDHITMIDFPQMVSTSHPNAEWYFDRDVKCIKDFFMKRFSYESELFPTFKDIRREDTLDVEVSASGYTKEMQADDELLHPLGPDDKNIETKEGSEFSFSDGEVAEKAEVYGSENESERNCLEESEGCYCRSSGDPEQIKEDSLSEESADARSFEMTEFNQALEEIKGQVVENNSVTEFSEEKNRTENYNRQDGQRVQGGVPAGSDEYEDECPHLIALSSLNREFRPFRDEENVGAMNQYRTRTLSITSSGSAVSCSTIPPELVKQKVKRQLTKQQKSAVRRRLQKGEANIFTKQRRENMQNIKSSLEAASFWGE
Chain of UniProt Q6PHR2 (whole entry, looked up): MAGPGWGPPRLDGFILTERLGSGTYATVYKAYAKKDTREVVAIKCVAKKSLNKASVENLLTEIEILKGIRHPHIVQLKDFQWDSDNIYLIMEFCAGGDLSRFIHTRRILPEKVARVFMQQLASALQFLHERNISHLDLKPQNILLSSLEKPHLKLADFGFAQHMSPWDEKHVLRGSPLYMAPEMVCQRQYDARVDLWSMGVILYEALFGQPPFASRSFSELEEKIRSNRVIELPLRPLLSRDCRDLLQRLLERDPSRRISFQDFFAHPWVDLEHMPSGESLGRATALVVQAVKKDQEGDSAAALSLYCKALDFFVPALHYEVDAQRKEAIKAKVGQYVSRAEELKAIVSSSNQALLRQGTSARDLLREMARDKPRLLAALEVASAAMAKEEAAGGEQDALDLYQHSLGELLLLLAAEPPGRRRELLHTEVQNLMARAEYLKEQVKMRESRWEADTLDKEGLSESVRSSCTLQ
Chain of UniProt P46734 (whole entry, looked up): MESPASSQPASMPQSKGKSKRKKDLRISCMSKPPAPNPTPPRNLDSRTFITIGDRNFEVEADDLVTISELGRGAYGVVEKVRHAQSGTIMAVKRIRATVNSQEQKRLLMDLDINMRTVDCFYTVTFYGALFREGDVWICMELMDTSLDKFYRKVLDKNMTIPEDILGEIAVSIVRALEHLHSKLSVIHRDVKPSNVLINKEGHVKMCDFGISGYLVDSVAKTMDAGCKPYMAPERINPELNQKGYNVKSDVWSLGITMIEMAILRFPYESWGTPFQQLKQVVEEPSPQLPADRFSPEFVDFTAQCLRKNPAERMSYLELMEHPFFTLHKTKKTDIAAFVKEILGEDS
Chain of UniProt Q9UPE1 (whole entry, looked up): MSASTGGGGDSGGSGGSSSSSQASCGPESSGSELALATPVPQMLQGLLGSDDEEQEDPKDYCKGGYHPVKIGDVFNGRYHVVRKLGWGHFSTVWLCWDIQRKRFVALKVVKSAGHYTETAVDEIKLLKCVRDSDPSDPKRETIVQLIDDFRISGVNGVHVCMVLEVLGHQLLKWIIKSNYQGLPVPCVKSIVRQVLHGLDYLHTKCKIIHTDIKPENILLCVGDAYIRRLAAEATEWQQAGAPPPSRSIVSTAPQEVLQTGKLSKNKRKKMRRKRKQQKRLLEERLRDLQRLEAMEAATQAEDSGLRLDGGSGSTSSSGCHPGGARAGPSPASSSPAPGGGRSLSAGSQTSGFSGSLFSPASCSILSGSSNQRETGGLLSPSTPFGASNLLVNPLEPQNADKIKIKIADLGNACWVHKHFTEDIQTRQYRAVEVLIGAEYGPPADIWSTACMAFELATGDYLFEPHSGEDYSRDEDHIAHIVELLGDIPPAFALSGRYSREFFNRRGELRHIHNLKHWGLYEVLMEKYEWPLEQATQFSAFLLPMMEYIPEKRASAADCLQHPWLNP
Chain of UniProt P41240 (whole entry, looked up): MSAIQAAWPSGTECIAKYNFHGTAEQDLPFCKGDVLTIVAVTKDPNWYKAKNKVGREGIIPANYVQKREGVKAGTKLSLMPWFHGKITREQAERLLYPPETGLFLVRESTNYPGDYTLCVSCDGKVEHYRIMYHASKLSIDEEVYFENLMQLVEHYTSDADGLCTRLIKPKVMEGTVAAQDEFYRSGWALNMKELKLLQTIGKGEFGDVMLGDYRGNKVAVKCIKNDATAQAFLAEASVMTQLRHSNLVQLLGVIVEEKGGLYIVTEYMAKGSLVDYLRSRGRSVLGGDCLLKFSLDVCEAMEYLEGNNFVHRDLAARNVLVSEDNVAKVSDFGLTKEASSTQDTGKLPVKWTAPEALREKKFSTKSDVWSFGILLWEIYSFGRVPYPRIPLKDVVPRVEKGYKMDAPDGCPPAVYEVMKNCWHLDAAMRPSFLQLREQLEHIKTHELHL

Series 1
Structure (SMILES): O=C(NS(=O)(=O)c1ccc(NCC2CCOCC2)c([N+](=O)[O-])c1)c1ccc(N2CCN(Cc3ccc(C(F)(F)F)cc3-c3ccc(Cl)cc3)CC2)cc1Oc1cnc2[nH]ccc2c1
Read-out: cell-free assay
Method: competition with immobilised ligand
Tested at: 1 µM
PRKCH (Homo sapiens, UniProt P24723) — remaining binding: 100%.
For RIOK2 (Homo sapiens, UniProt Q9BVS4): remaining binding read 90%.
It gave 88% for remaining binding (NUAK2 (Homo sapiens, UniProt Q9H093)).
It gave 88% for remaining binding (AXL (Homo sapiens, UniProt P30530)).
MAP3K10 (Homo sapiens, UniProt Q02779) — remaining binding: 95%.
For PAK3 (Homo sapiens, UniProt O75914): remaining binding read 77%.
PIM3 (Homo sapiens, UniProt Q86V86) — remaining binding: 100%.
PDPK1 (Homo sapiens, UniProt O15530) — remaining binding: 70%.
CASK (Homo sapiens, UniProt O14936) — remaining binding: 80%.
STK25 (Homo sapiens, UniProt O00506) — remaining binding: 98%.
It gave 87% for remaining binding (CSK (Homo sapiens, UniProt P41240)).
FYN (Homo sapiens, UniProt P06241) — remaining binding: 100%.
For GRK4 (Homo sapiens, UniProt P32298): remaining binding read 100%.
The remaining binding was 100% (Ribosomal protein S6 kinase alpha-1, C-terminal kinase domain (RPS6KA1, Homo sapiens, UniProt Q15418)).
The remaining binding was 80% (MAP2K3 (Homo sapiens, UniProt P46734)).
It gave 85% for remaining binding (ULK3 (Homo sapiens, UniProt Q6PHR2)).

Series 2
Cell line: mouse MPNST tumor cells
Method: high-content nuclear imaging
Measured: cell number
Tested at: 10 µM
Time: 12 h
Setting: mean of 2 replicates
Relative to: plate mean
Reading: higher = more cells
The nuclei count of `COc1ccc(CNc2nc(N(CCO)CCO)nc3c2ncn3C(C)C)cc1` is reported as 1.33 z-score.
With `CCn1cc(C(=O)O)c(=O)c2cc(F)c(N3CCNCC3)nc21` the nuclei count was 1.31 z-score and 1.23 z-score.
With `Cc1nc2ccccn2c(=O)c1CCN1CCC(C(=O)c2ccc(F)cc2)CC1` the nuclei count was 1.58 z-score.
`CCCCC(CC)CNC(=N)NC(=N)NCCCCCCNC(=N)NC(=N)NCC(CC)CCCC` (centres unmarked) gave a nuclei count of -4.37 z-score.
With `CC(C)NC(=O)c1ccc(C#Cc2ccncc2)cn1` the nuclei count was -0.194 z-score.
`O=c1oc2c(C3OCCCO3)c(O)ccc2c2c1CNCC2` has a nuclei count of 1.52 z-score.
`O=c1[nH]cnc2c1ncn2[C@H]1CC[C@@H](CO)O1` has a nuclei count of -1.04 z-score.
For `COCC[n+]1c2c(n(Cc3cnccn3)c1C)C(=O)c1ccccc1C2=O`, the nuclei count was -3.99 z-score.
For `Cc1ccc(-c2ncc(Cl)cc2-c2ccc(S(C)(=O)=O)cc2)cn1`, the nuclei count was 1.22 z-score.

Series 3
SMILES: O=C(Nc1cnn(-c2csc(C(=O)NC3COC3)c2)c1)Nc1c(F)cccc1Cl
Read-out: enzyme activity
Tested at: 5 µM
The remaining activity was 85.7% (SRPK3 (Homo sapiens, UniProt Q9UPE1); relative to: untreated control).
The remaining activity was 95.6% (FRK (Homo sapiens, UniProt P42685); relative to: untreated control).
It gave 98.3% for remaining activity (PRKACB (Homo sapiens, UniProt P22694); inhibitor).
CSNK1G2 (Homo sapiens, UniProt P78368); relative to: untreated control — remaining activity: 89%.
The remaining activity was 84.3% (DDR1 (Homo sapiens, UniProt Q08345); relative to: untreated control).
The remaining activity was 85.8% (NEK9 (Homo sapiens, UniProt Q8TD19); relative to: untreated control).
It gave 82.3% for remaining activity (NEK3 (Homo sapiens, UniProt P51956); relative to: untreated control).

Series 4
Host: mouse
Medium: microsomes or S9
Tested at: 2 µM
Time: 0.5 h
For `CCC(=O)c1ccc(CCCCCC(=O)O)s1`, the remaining compound was 31.3%.
The remaining compound of `CS(=O)(=O)c1nc(-c2ccc(Br)cc2)n[nH]1` is reported as 80.9%.
`COc1ccc(C)cc1C1=CC(C)(c2cc(C)ccc2OC)Nc2nnnn21` (centres unmarked) has a remaining compound of 9.95%.
`CCCS(=O)(=O)N1CC(=O)Nc2ccc(Br)cc21` has a remaining compound of 83.8%.
`COc1ccc(CC(=O)OCCn2cc(Br)ccc2=O)nc1` gave a remaining compound of 2.24%.
The remaining compound of `Cc1c(-c2noc(-c3cnn(C)c3C)c2Cl)cnn1C` is reported as 0.2%.

Repeated from above (series 3):
The remaining activity was 85.7% (SRPK3 (Homo sapiens, UniProt Q9UPE1); relative to: untreated control).
The remaining activity was 95.6% (FRK (Homo sapiens, UniProt P42685); relative to: untreated control).
It gave 98.3% for remaining activity (PRKACB (Homo sapiens, UniProt P22694); inhibitor).
CSNK1G2 (Homo sapiens, UniProt P78368); relative to: untreated control — remaining activity: 89%.
The remaining activity was 84.3% (DDR1 (Homo sapiens, UniProt Q08345); relative to: untreated control).
The remaining activity was 85.8% (NEK9 (Homo sapiens, UniProt Q8TD19); relative to: untreated control).
